Results gathered from unrelated publications.
Lines come from different studies, so protocols differ. Several values in a cell are separate wells, animals, samples, runs or records. ± marks the error that the study gave.

SMILES	tested on	test	system	setting	how to read	endpoint	value
CCCCCCCCCCCCCCCC(=O)NCCCC[C@H](NC(=O)[C@H](CCC(=O)O)NC(=O)[C@H](Cc1ccc(O)cc1)NC(=O)[C@H](CCC(=O)O)NC(=O)COCC(=O)NCCCOCCOCCOCCCNC(=O)[C@H](Cc1ccccc1)NC(=O)[C@H](CC(N)=O)NC(=O)[C@H](Cc1c[nH]cn1)NC(=O)[C@@H](NC(=O)[C@H](CC(=O)O)NC(=O)[C@H](CCC(N)=O)NC(=O)[C@H](CC(C)C)NC(=O)[C@H](CCCCN)NC(=O)[C@H](CCCCN)NC(=O)[C@H](CCCNC(=N)N)NC(=O)[C@H](CC(C)C)NC(=O)[C@H](Cc1c[nH]c2ccccc12)NC(=O)[C@H](CCC(=O)O)NC(=O)[C@@H](NC(=O)[C@H](CCCNC(=N)N)NC(=O)[C@H](CCC(=O)O)NC(=O)[C@H](CCSC)NC(=O)[C@H](CO)NC(=O)[C@H](CC(N)=O)NC(=O)[C@H](CC(C)C)NC(=O)[C@H](Cc1c[nH]cn1)NC(=O)[C@H](CCCCN)NC(=O)CNC(=O)[C@H](CC(C)C)NC(=O)[C@H](CC(N)=O)NC(=O)[C@H](Cc1c[nH]cn1)NC(=O)[C@H](CCSC)NC(=O)[C@H](CC(C)C)NC(=O)[C@H](CCC(N)=O)NC(=O)[C@@H](NC(=O)[C@H](CCC(=O)O)NC(=O)[C@H](CO)NC(=O)[C@@H](NC(=O)[C@@H](N)CO)C(C)C)[C@@H](C)CC)C(C)C)C(C)C)C(=O)N[C@@H](CCC(=O)O)C(=O)N[C@@H](Cc1ccc(O)cc1)C(=O)N[C@@H](CCC(=O)O)C(N)=O	–	ELISA	female CD-1 mice, blood plasma	subcutaneous, 10 nmol/kg, 4 h	–	plasma concentration	7.7 nM
CCCCCCCCCCCCCCCC(=O)N[C@@H](CCC(=O)NCCOCCOCCC(=O)NCCOCCOCCC(=O)NCCCC[C@H](NC(=O)[C@H](CC(=O)O)NC(=O)[C@H](CC(C)C)NC(=O)[C@H](Cc1ccc(O)cc1)NC(=O)[C@H](CCCCN)NC(=O)[C@H](CO)NC(=O)[C@H](Cc1ccc(O)cc1)NC(=O)[C@H](CC(=O)O)NC(=O)[C@H](CO)NC(=O)[C@@H](NC(=O)[C@H](Cc1ccccc1)NC(=O)[C@@H](NC(=O)CNC(=O)[C@H](CCC(N)=O)NC(=O)[C@@H](CO)NC(=O)[C@@H](N)Cc1c[nH]cn1)[C@@H](C)O)[C@@H](C)O)C(=O)N[C@@H](CCCNC(=N)N)C(=O)N[C@@H](CCCNC(=N)N)C(=O)N[C@@H](C)C(=O)N[C@@H](CCC(N)=O)C(=O)N[C@@H](CC(=O)O)C(=O)N[C@@H](Cc1ccccc1)C(=O)N[C@H](C(=O)N[C@@H](CCC(N)=O)C(=O)N[C@@H](Cc1c[nH]c2ccccc12)C(=O)N[C@@H](CC(C)C)C(=O)N[C@@H](CC(C)C)C(=O)N[C@@H](CC(N)=O)C(=O)N[C@H](C(=O)NCC(=O)NCC(=O)N1CCC[C@H]1C(=O)N[C@@H](CO)C(=O)N[C@@H](CO)C(=O)NCC(=O)N[C@@H](C)C(=O)N1CCC[C@H]1C(=O)N1CCC[C@H]1C(=O)N1CCC[C@H]1C(=O)N[C@@H](CO)C(N)=O)[C@@H](C)O)C(C)C)C(=O)O	–	measured: ALP	Sprague-Dawley rat, male	subcutaneous, 100 µg/kg once daily, 14 days	–	serum enzyme activity	174 ± 95.5 U/L
O=C1NC2(CC2)COc2ncc(F)cc2[C@H]2COCCN2c2ccn3ncc1c3n2	–	–	Sprague-Dawley rat, female, serum	oral, 10 mg/kg/day, 4 weeks daily, end of recovery period	–	aspartate aminotransferase activity	75.9 ± 13.9 U/L
Cc1ccc(N2C[C@@H]3C[C@H]2CN3C)cc1C(=O)N[C@H](C)c1cc(-c2cnn(C)c2)nc2ccccc12	Vero E6	–	–	125 µM	–	viability	2.77%
CC[C@H](C)[C@@H]1NC(=O)[C@H](Cc2ccc(O)cc2)NC(=O)CCCSC[C@@H](C(=O)N(CC(=O)N[C@@H](CC(C)C)C(=O)NCC(N)=O)Cc2ccc(F)cc2)NC(=O)[C@H](CC(N)=O)NC(=O)[C@H](CCC(N)=O)NC1=O	–	–	human	intranasal, 400 µg repeated doses	–	deaths	0%
CC[C@H](C)[C@H](NC(=O)CN)C(=O)N[C@@H](CCCNC(=N)N)C(=O)N[C@@H](CCCCN)C(=O)N[C@@H](Cc1c[nH]c2ccccc12)C(=O)N[C@@H](Cc1ccccc1)C(=O)N[C@@H](CCCCN)C(=O)N[C@@H](CCCCN)C(=O)N[C@@H](C)C(=O)N[C@@H](C)C(=O)N[C@@H](Cc1c[nH]cn1)C(=O)N[C@H](C(=O)NCC(=O)N[C@@H](CCCCN)C(=O)N[C@@H](CCCCN)C(=O)N[C@H](C(=O)NCC(=O)N[C@@H](CCCCN)C(=O)N[C@H](C(=O)N[C@@H](C)C(=O)N[C@@H](CC(C)C)C(=O)N[C@@H](CC(N)=O)C(=O)N[C@@H](C)C(=O)N[C@@H](Cc1ccc(O)cc1)C(=O)N[C@@H](CC(C)C)C(N)=O)C(C)C)C(C)C)C(C)C	–	–	zebrafish embryos 4 hpf, E3 medium	1 h	–	acute toxic concentration	25 µM
COc1ccc(CNc2ccc3c(c2)S(=O)(=O)C=C3)cc1	–	–	male C57BL/6 mice, blood	intraperitoneal, 5 mg/kg, day 8, group average	–	haemoglobin	158 g/L
COC(=O)[C@H](Cc1ccc(-c2ccccc2)cc1)NC(=O)c1ccc(-c2ccc(OP(=O)(O)O)cc2)cc1	–	–	PBS	pH 7.4, before phosphatase treatment	–	critical micelle concentration	46.1 µM
CSCC[C@H](NC(=O)[C@@H](NC(=O)[C@H](CC(C)C)NC(=O)[C@@H](NC(=O)[C@H](Cc1c[nH]cn1)NC(=O)CCCCCNC(=O)[C@H](CCCNC(=N)N)NC(=O)[C@H](CCCNC(=N)N)NC(=O)[C@H](CCCNC(=N)N)NC(=O)[C@H](CCC(N)=O)NC(=O)[C@H](CCCNC(=N)N)NC(=O)[C@H](CCCNC(=N)N)NC(=O)[C@H](CCCCN)NC(=O)[C@H](CCCCN)NC(=O)[C@H](CCCNC(=N)N)NC(=O)CNC(=O)[C@@H](N)Cc1ccc(O)cc1)C(C)C)C(C)C)C(=O)N[C@@H](CS)C(=O)N[C@@H](C)C(=O)N[C@H](C(N)=O)[C@@H](C)O	–	–	C57BL/6J mice	Alzet osmotic pump, 3 mg/kg, 8 weeks	–	serum Glucose	270 mg/dL and 256 mg/dL and 235 mg/dL
Cc1ccc(N2CC3CCC(C2)N3C)cc1C(=O)N[C@H](C)c1cc(-c2cnn(C)c2)nc2ccccc12	African green monkey cells	–	–	31.25 µM	–	viability	53.3%
O=C(c1cc(Cc2n[nH]c(=O)c3ccccc23)ccc1F)N1CC(CNC2CC2)C1	–	–	female Wistar Han rat	oral, 15 mg/kg, day 1	–	Cmax	2940 ng/mL
CC[C@H](C)[C@H](NC(=O)[C@H](CCCCN)NC(=O)CNC(=O)[C@H](CC(C)C)NC(=O)[C@H](Cc1ccccc1)NC(=O)[C@H](CCCCN)NC(=O)[C@H](CO)NC(=O)[C@H](Cc1ccccc1)NC(=O)[C@H](Cc1c[nH]c2ccccc12)NC(=O)[C@H](CCC(N)=O)NC(=O)[C@@H](NC(=O)[C@H](Cc1ccccc1)NC(=O)CCCCCNC(=O)CN1CCN(CC(=O)O)CCN(CC(=O)O)CCN(CC(=O)O)CC1)C(C)C)C(=O)N[C@@H](CCC(=O)O)C(=O)N1CCC[C@H]1C(=O)N[C@@H](CC(=O)O)C(=O)N[C@H](C(=O)N[C@@H](CO)C(=O)N[C@@H](CCC(N)=O)C(=O)N[C@H](C(=O)N[C@@H](CCC(N)=O)C(=O)N[C@@H](CC(=O)O)C(=O)N1CCC[C@H]1C(=O)N[C@@H](CC(N)=O)C(=O)N[C@@H](CC(=O)O)C(=O)N[C@@H](CCC(N)=O)C(=O)N[C@@H](Cc1ccc(O)cc1)C(=O)N[C@@H](CCC(=O)O)C(=O)N1CCC[C@H]1C(=O)N[C@@H](Cc1ccccc1)C(=O)O)C(C)C)C(C)C [copper-64 labelled]	–	dynamic PET	mouse, CT26 tumour, checkpoint inhibitor-treated, tumour	intravenous, 100 µCi/mouse, 50 s	–	SUVmean	0.24 SUV
CSCC[C@H](NC(=O)CNC(=O)[C@H](CCCCN)NC(=O)[C@H](CC(C)C)NC(=O)[C@@H]1CCCN1C(=O)[C@H](CO)NC(=O)[C@H](Cc1c[nH]cn1)NC(=O)[C@H](Cc1c[nH]c2ccccc12)NC(=O)[C@H](CCCNC(=N)N)NC(=O)[C@H](CC(C)C)NC(=O)[C@H](CCCNC(=N)N)NC(=O)[C@H](Cc1c[nH]c2ccccc12)NC(=O)[C@H](CS)NC(=O)CCCCCNC(=O)CN1CCN(CC(=O)O)CCN(CC(=O)O)CCN(CC(=O)O)CC1)C(=O)O [copper-64 labelled]	–	–	male C57BL/6J mice, B16-F10 tumour, intestinal lymph node	intravenous, 1.85 MBq, 2 h	–	tissue uptake	1.64 %ID/g
CC(C)[C@@H]1NC(=O)CNC(=O)[C@H](CC(N)=O)NC(=O)[C@H](CCCNC(=N)N)NC(=O)[C@H](Cc2ccc(O)cc2)NC(=O)[C@H](C(C)C)NC(=O)[C@@H](NC(=O)[C@@H](NC(=O)[C@H](CC(N)=O)NC(=O)[C@H](Cc2c[nH]c3ccccc23)NC(=O)[C@H](C)NC(=O)[C@H](Cc2ccccc2)NC(=O)CNC(=O)[C@H](CCCCN)NC(=O)[C@H](Cc2ccccc2)NC(=O)[C@H](Cc2ccccc2)NC(=O)[C@H](CCCCN)NC(=O)OCC2c3ccccc3-c3ccccc32)C(C)C)CSSC[C@@H](C(=O)N[C@@H](Cc2c[nH]cn2)C(=O)N[C@@H](CCCNC(=N)N)C(=O)N[C@@H](CCCNC(=N)N)C(=O)N[C@@H](C)C(=O)N[C@@H](CC(N)=O)C(N)=O)NC(=O)[C@H](C(C)C)NC(=O)[C@H](CCCNC(=N)N)NC1=O	–	–	ICR mice, serum	intraperitoneal, 5 mg/kg, day 5	relative to: AST over ALT	AST/ALT ratio	0.55 ± 0.03
CC(CCC(=O)NCC(=O)O)C1CCC2C3C(O)CC4CC(OC5OC(C(=O)O)C(O)C(O)C5O)CCC4(C)C3CCC12C (stereo not drawn)	–	measured: glucuronide to parent ratio	women, plasma	dose not given	relative to: C/C over T/T	ratio of metabolic ratios	8.97

For quick reference, copied from above:
SMILES	tested on	test	system	setting	how to read	endpoint	value
COc1ccc(CNc2ccc3c(c2)S(=O)(=O)C=C3)cc1	–	–	male C57BL/6 mice, blood	intraperitoneal, 5 mg/kg, day 8, group average	–	haemoglobin	158 g/L
COC(=O)[C@H](Cc1ccc(-c2ccccc2)cc1)NC(=O)c1ccc(-c2ccc(OP(=O)(O)O)cc2)cc1	–	–	PBS	pH 7.4, before phosphatase treatment	–	critical micelle concentration	46.1 µM
